Experimental data from different studies.
Every numbered part comes from another study and shows a few of its results, in no order. Positions count from the first letter of the parent shown.

Sample 1
Target: ABI1, truncated, D143A, DHFR fusion (Arabidopsis thaliana)
Method: DHFR PCA, deep sequencing
Matrix: yeast
Notes: methotrexate growth selection, single substitutions
Together with: (+)-ABA 2500 µM
Relative to: wild-type fitted maximum
Direction: higher = stronger binding
Starting sequence: PYL1, truncated, DHFR fusion (Arabidopsis thaliana); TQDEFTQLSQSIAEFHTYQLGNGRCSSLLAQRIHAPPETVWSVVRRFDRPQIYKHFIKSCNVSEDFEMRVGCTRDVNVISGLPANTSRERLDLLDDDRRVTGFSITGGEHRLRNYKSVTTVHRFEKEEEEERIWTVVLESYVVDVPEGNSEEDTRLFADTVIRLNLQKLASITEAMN
Substitution	relative binding score [%]
V142P	-5.29
S150Q	88.4
S117Q	99
S11E	108
C72T	92.6
R69Y	93.9
E131N	104
L28D	22.1
H110W	16.1
R46S	94
E4T	102
D144W	70.9
E125A	98.2
Q31F	79.3
D65K	95.6
V137L	86.4
S150A	89.6
V44Q	57.2
W41V	-13.9
E4H	104
R24G	92
R49M	91.8
F15L	95.8
Y141L	11.1
T173F	93.6

Sample 2
Target: Histone acetyltransferase KAT6A, both winged helices, GST fusion (KAT6A, Homo sapiens, UniProt Q92794, residues 1-181)
Method: protein binding microarray
Form: double-stranded DNA, one strand shown
Matrix: in vitro
Tested at: not given
Notes: 8-mer, flanks averaged, mean of 2 arrays, mostly near background
Relative to: not given
Direction: higher = stronger binding
Target sequence (chain): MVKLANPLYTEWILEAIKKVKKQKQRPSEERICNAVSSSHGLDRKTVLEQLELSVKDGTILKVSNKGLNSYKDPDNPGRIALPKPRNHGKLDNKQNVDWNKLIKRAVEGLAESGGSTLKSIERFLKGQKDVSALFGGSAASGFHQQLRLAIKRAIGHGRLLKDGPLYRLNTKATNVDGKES
Sequence	E-score
CCTGCTCA	-0.198
ATATGCCA	-0.0129
ACCCTGAA	-0.173
GTAGTAAC	-0.0538
CCTTTCAA	-0.00815
ATCCATCC	-0.0768
AATATCTA	-0.189
CACGAGGG	-0.156
ACGGTTTG	0.187
CGAGTAAA	0.0739
ACACATAC	-0.17
GGCGCCAC	0.275
GGTCCTAC	-0.136
CTAGAGTA	-0.104
GCAAGGAC	0.0125
AACGCGGG	0.269
AATTGAAG	-0.142
CCGCGCTA	0.32
AGCACGGC	0.219
TATGATGA	-0.0899
TATCACAA	-0.164
AAAGGATT	-0.158
CGGGAATA	0.218
AGGCCTCC	-0.148
AGCATAAC	-0.125

Sample 3
Target: Sal-like protein 4, full length isoform B (SALL4, Homo sapiens, UniProt Q9UJQ4-2, residues 1-616)
Method: universal PBM
Form: double-stranded DNA, one strand shown
Matrix: in vitro
Tested at: not given
Notes: 8-mer, flanks averaged, mean of replicates
Direction: higher = stronger binding
Sequence	E-score
GTTGAGAA	-0.0262
GCGTCTCA	-0.29
ACGATCCT	0.048
AATTCCTA	0.0996
ACAAAACG	0.132
TCCATCAA	0.243
CTTGCTTA	0.0192
CAGGGGCC	-0.376
AAACAACT	0.122
AACAACAG	0.0486
GAAACGGC	-0.124
TATTACCA	0.363
GGTCGTCA	0.0114
CGTTCCCA	0.00758
GAGACTTA	0.0422
CCAGTTAA	0.11
AGTTTACA	0.135
ACCCAGCT	-0.28
GGGAGTTA	-0.017
AAATATCG	0.256
ACCTGTCA	-0.0933
ATCTGCAA	0.0648
CGAAAGGA	0.106
AAATGCAT	0.187
AATGGGTA	0.187

Sample 4
Target: PABPC1L2, full length, GST fusion (mouse, UniProt A0ABA7IW68)
Method: RNAcompete
Form: RNA
Matrix: in vitro
Tested at: 20 nM
Notes: 7-mer, probes averaged, single round
Relative to: mean of 7-mers
Direction: higher = stronger binding
Construct (chain): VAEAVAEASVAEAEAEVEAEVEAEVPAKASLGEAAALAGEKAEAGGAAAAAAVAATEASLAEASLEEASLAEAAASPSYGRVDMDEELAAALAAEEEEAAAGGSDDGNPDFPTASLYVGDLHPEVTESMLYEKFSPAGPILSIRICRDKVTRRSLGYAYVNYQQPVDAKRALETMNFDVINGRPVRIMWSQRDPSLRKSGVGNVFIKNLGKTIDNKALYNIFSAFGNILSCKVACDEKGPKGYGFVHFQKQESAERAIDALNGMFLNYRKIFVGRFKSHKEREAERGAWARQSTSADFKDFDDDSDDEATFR
Sequence	7-mer Z-score
UCCUGCU	-0.405
GUCAGUA	-0.128
AAAAAGC	15.6
UAUAUUG	-0.128
UAGAUUC	-0.258
GUAACUU	-0.208
CGCGUCU	-0.412
UCGCAAA	0.486
CGUAAAA	3.66
AGGCUUU	-0.161
AUUCCGC	-0.364
AACUACG	0.0551
GGUGCGA	0.236
UAAAUCA	0.724
UACGGGA	0.119
GAGCGGU	-0.0699
UGUUCAC	-0.487
AGCGCAU	-0.141
GACCAUU	-0.175
ACACUCG	-0.13
AAGACAC	0.35
GUGAAAC	-0.0101
ACCAAAA	6.48

Sample 5
Target: JUNB, bZIP domain (human)
Method: DHFR protein complementation
Matrix: yeast
Notes: single substitutions, most at no-binding floor
Relative to: wild-type JUN-FOS pair
Direction: higher = stronger binding
Starting sequence: JUN, bZIP domain (human); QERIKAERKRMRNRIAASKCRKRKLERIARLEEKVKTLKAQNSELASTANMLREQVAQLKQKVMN; partner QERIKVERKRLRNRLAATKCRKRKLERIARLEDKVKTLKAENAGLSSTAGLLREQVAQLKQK
Substitution	binding fitness [natural log]
Q41Y	-1.41
A29E	-1.27
A29G	-1.24
E54R	-1.32
M51N	-1.2
S47N	-0.886
E32M	-1.16
S47W	-1.3
T48V	-1.1
L38A	-1.58
K36V	-1.36
A29P	-1.35
N42W	-1.46
I28G	-1.35
Q55N	-1.49
R53T	-1.43
E33D	-1.27
M51I	-1.15
E32F	-1.46
K39M	-0.983
L45S	-1.61
T48G	-1.45
M51K	-0.997
R30C	-1.26
A46P	-1.51

Sample 6
Target: CCNE1, cyclin fold, Cln2 fusion (human)
Method: yeast growth competition, sequencing
Matrix: yeast
Notes: strong parent motif
Relative to: not given
Direction: higher = stronger binding
Starting sequence: SCAPER docking peptide (human); SNARRSLNFGGST
Substitution	normalised enrichment score
S12E	1.96
S1V	0.731
T13W	0.656
F9Y	-0.214
L7K	0.569
F9V	0.102
A3H	0.712
F9M	1.04
S12R	-0.731
S6E	0.645
G11D	1.92
A3L	0.266
N8W	1.19
R5E	0.193
L7R	0.0313
N8T	0.873
G10Q	0.467

For quick reference, copied from above (sample 4):
Sequence	7-mer Z-score
AUUCCGC	-0.364
AGCGCAU	-0.141
UCGCAAA	0.486
GUAACUU	-0.208
UCCUGCU	-0.405
UAGAUUC	-0.258
GGUGCGA	0.236
UGUUCAC	-0.487
ACACUCG	-0.13
UAUAUUG	-0.128
GACCAUU	-0.175
